Measurements gathered from unrelated publications.
Each numbered part is a random draw from the data of one study; scales do not carry over between parts. Substitutions count along the parent as printed.

Set 1 — method: EMSA with sequencing; form: double-stranded DNA, one strand shown; medium: in vitro; concentration: 10 and 20 nM; reference: negative control set to 0; direction: higher = stronger binding
Target: Hepatocyte nuclear factor 3-alpha (Foxa1, Mus musculus, UniProt P35582, residues 1-468, full length assumed)
Setting: whole designed probe, mean of two concentrations, ends assumed
Target sequence (chain): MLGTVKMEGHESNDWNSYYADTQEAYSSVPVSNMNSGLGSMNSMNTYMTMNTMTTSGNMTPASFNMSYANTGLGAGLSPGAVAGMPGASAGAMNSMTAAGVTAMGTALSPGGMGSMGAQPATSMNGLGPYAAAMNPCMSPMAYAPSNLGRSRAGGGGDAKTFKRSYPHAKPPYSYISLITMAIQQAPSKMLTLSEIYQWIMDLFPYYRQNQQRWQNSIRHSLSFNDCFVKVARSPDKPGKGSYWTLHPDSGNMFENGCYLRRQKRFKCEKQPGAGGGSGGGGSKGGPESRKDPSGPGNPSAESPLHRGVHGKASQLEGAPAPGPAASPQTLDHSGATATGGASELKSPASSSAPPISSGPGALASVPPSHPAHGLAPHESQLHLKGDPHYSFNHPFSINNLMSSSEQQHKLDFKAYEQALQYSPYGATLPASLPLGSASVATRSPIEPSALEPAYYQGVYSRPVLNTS
| Sequence | normalised bound fraction |
| --- | --- |
| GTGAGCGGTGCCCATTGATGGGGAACTTTGAAATAGTTCATAATTTTAAAAGCAGCAACACTAACATTGTTCAGATTATTATAAAAGCATATATAAAGTTAGAGGATAGATGTTATATGTAATCTTGAAGAAAGACTTAATATTAAATATCTCAGAGTATACACTTTATGAATAGAAATGGTGTATCCTTTTTTCCTAAGGAACGGAAGAAATTCACATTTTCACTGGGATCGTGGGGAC | -0.0131 ratio |
| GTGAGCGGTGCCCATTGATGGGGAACCATTAGAGTCAAAGTTGTTAAGGGGAGCTAGTCATAGCTACCACGTGGCCAGGCATGTGGAACCAGATGAATCATCAACACCAGGCACATAAAGTAAATAGATGAATAATGCTGACAACCTAGTTCATAGTGACACACTACTTGAGATATATAGAATAACATTATTACCCAGTAAGTATGTGAACATTCCGATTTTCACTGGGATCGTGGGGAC | 0.415 ratio |
| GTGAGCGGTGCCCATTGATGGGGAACTTTTTTCTGTACAGGGAAAAATAGTGAATATTTCAAAATTGTGAAACAAAGAGTCTCTGGTTGCATAACTGGCAACTACTCATTAGACAATATGCAAACAAATGAGTGTGTCTGTGTTCCAATAAAACTGTATTTACAAAAGCAGAAGGCCACCCATGTGCCAATGTCCAAAGTTTCTCAACCAACCCCTGGTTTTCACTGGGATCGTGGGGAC | 0.377 ratio |
| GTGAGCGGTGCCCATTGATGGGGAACAGAATGACCTCTCAGATTCATTGCAATGCAAACCCCCTCTGAGCCCATGAAAAAGTGTCCAGTGAATGTGCTCTGCAAACATGCAGGCACTATATAAACAAGAGGCAAATATTTTAAAAGGTGAAGAATGAGATACTTGTACTGCTGTGAGAGCGGTGGTTGGAATGTTGTGCCCCAGCAACATACTTTCCGTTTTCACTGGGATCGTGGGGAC | 0.353 ratio |
| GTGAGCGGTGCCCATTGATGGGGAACATCTTCCCCCTCTTCCTTGCCCCACCAGCTCACCTACGGGGGTTATTTGCACAAAGGAAAATAAATAAAGCCGGCATTCGTTAACGCAGTTCACGCGCATACTGCTGTTTGCTCTGCATGAATCATGGTCCTTACGCGAGGCGTGGCTCCGGGAGAGCAAAGCACCGTGTCAGGCGCATGATCCGGGCTCGCCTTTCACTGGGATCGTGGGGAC | 0.391 ratio |

Set 2 — method: RNAcompete; form: RNA; medium: in vitro; concentration: 20 nM; setting: 7-mer, probes averaged, single round; reference: mean of 7-mers; direction: higher = stronger binding
Target: PABPC1L2, full length, GST fusion (mouse, UniProt A0ABA7IW68)
Target sequence (chain): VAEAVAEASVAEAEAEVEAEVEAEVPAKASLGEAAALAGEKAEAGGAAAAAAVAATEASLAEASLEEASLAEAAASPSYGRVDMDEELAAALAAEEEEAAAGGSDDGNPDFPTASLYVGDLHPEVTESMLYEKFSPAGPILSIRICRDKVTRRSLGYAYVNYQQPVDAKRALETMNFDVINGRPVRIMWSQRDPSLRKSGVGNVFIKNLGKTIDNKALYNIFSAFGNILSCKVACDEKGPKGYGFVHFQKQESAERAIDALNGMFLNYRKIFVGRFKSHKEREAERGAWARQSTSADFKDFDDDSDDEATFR
| Sequence | 7-mer Z-score |
| --- | --- |
| GUGCAUG | 0.144 |
| GACGUGG | -0.00289 |
| AUAGGAA | -0.0319 |
| GUACGAC | -0.191 |
| CCCGGGU | -0.238 |
| AUAUGUU | -0.195 |
| GUAAGGG | 0.204 |
| GCCCAAC | -0.344 |
| UGCUCCA | -0.387 |
| GUGCUUG | -0.115 |
| AGAAUAG | 0.0406 |
| UUCGUCC | -0.518 |

Set 3 — target: CCND2, cyclin fold, Cln2 fusion (human); method: yeast growth competition, sequencing; medium: yeast; setting: weak parent motif; reference: not given; direction: higher = stronger binding
Starting sequence: RB1 docking peptide (human); PKPLKKLRFDIEG
| Change | normalised enrichment score |
| --- | --- |
| PKPLKKLRFDDEG [I11D] | 0.0463 |
| PKPLKKLRFTIEG [D10T] | 0.163 |
| PKMLKKLRFDIEG [P3M] | -0.0948 |
| PKPLKKLRRDIEG [F9R] | -0.0245 |
| PKPLKQLRFDIEG [K6Q] | 0.28 |
| PKPHKKLRFDIEG [L4H] | 0.165 |
| LKPLKKLRFDIEG [P1L] | -0.547 |
| PKPLKKLRSDIEG [F9S] | 0.0318 |
| PKPLKKLRFDAEG [I11A] | 0.709 |
| PKPLKKLRFIIEG [D10I] | -0.461 |
| PKPLKKLRQDIEG [F9Q] | 0.257 |
| PTPLKKLRFDIEG [K2T] | 0.104 |
| PKPLKKLRFDIEV [G13V] | -0.0864 |
| PIPLKKLRFDIEG [K2I] | 0.507 |
| PKPLKKLRFDIET [G13T] | -0.401 |
| PKPLKKLRFCIEG [D10C] | 0.0219 |
| PKPLKKLRFDIRG [E12R] | -0.219 |
| FKPLKKLRFDIEG [P1F] | 0.531 |
| PKPLKKERFDIEG [L7E] | 0.116 |
| PKPLKKLRFEIEG [D10E] | -0.0887 |
| PKPLKKLPFDIEG [R8P] | 0.289 |

Set 4 — method: RNA Bind-n-Seq; form: RNA; medium: in vitro; concentration: 365 nM; reference: no-protein control; direction: higher = stronger binding
Target: RNA binding protein fox-1 homolog 2, RRM domain, GST-SBP tag (RBFOX2, Homo sapiens, UniProt O43251-10, residues 100-194)
Setting: natural RNA segment, single round, ends assumed
Target sequence (chain): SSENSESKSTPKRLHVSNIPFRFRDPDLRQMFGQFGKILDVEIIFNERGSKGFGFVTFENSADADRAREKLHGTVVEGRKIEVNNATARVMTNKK
| Sequence | RBNS enrichment (R) |
| --- | --- |
| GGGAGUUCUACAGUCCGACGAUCGAGGCCACCUAGCAAGGUAGUAACUAGUCUAACCUGUGCUAACAUUAGGGCACAACCUGUUGGAUAGUUUUAGCUUCCUGUGAACAUUUGUAACCACUGCUUCAGUCACCUGGAAUUCUCGGGUGCCAA | 0.448 |
| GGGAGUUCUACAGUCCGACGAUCCUUGAAUAAGCUGCUGCUUACCCCACUGAGCCUCAGUUUUUCCUAUGUAAGAGUGAUAUAAAACCUACCUCUGAGGUCAUUUAAUAAUAAGCACAGACAUGUGGAAAGUGUGGAAUUCUCGGGUGCCAA | 0.403 |
| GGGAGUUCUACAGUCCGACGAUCGCCUCAUAAAGGGCCAGGUCUCCCCAGUACCAAGUCCUUUCCUCAUGAAGUUGUGUUGCCUCAGGCUGUUUAGGGACCAUUGCCUGUCUUGGUCACAUGAGUCUGUCUCCUGGAAUUCUCGGGUGCCAA | 0.899 |
| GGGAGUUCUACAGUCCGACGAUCUGCUAUAAAAUGGACGCUAAACUAUGAAAACAGUGUGACAUUGUUCUCUGUUCUUCCAGAGCCAGUAACAUGCUUGCUCGUGCUUUCUACUUCUAGCUGAUCAUUCUUUUUGGAAUUCUCGGGUGCCAA | 0.284 |
| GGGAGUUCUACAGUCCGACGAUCCUGUUCCUUUGGCAAGCUUUAUCAGUAGCUUAACAACAGAAGAGAAGAGUUCAAACAGAUGAUGUUUUUUCCAAAGAAAAACAAAUUGUUGACUCUCUUCCAUGCAUAUUUGGAAUUCUCGGGUGCCAA | 0.425 |
| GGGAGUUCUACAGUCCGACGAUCGGGCCUCAGAACUCUUGCUCUUCCUGGGCUGAGGGGGAAUGAGUGUUCUUGCCAUUUGCCAGCCUAAUGCGCAUGCUUUCUGCCUCUGGUAACAGGAGUGAGUGAGCCCCUGGAAUUCUCGGGUGCCAA | 1.3 |
| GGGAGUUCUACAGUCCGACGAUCCUAUUUCAAGUAGGGAAACCCAGGUGGACUUUGCUCAAGAUGGUUCCCAAAAUGAGAGGCACCAACUUCAAGAAUUGCCUCCUAGGGGGAGGCACGAGCCAGAGACCAGGUGGAAUUCUCGGGUGCCAA | 0.271 |
| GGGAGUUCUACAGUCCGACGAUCCAGACAGCAAAUGAUUCCGGAUCUCUAAAAGGCUCUCUCAGAUGAAAAGGGAGUAAAGGAAAAAAGAGGUCAACCACUGUUUCUGAUAAUGUACUUGAGUUUCAUUGUUCUGGAAUUCUCGGGUGCCAA | 0.514 |
| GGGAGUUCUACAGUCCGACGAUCAGAAGCUGAAGUCUACGCUCCUCCCAAUCUUUGGUCCCAGUGCCGCUGUUCGCCUUCCUGCUGGUUGAUUGCAGAACCACCUCUGAGACCUCUGUACCUGCUCUUGGAAUUGGAAUUCUCGGGUGCCAA | 0.458 |
| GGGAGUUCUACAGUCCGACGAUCAGCUUCACUCAGGACCACCUUGGGGUGUAACAGAGGGUGUCAUCCGGCCCCUGGCCCUGGGGAACAUCCCUAGAGGCCCAGAAUGGGGGUUGCUGGGUACCCCAUGCCCUUGGAAUUCUCGGGUGCCAA | 0.36 |
| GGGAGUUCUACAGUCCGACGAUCAGCCUUGGAGCAAAGUUGACCACCACCUUGUGUGGAUCAAGAAGAGAAGAAACUACUUUGGAGUUUUUGAAAAAGCAAGCCAGAAAAUCCACUGAGCCUUCAGCAGAAAUUGGAAUUCUCGGGUGCCAA | 0.288 |
| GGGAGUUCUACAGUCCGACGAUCGCGAGUGCUAUUGUAGUCUUGGCAAGUGAGCCAAGAACCUAGGAGCAGGGCCAUUCCUACUGAAGGACGGGCCCCCUACGGAGAUGAAAUUUGUUUCCUGGUGAGCACAGUGGAAUUCUCGGGUGCCAA | 0.421 |

Set 5 — method: protein-binding microarray; form: hairpin DNA; medium: in vitro; concentration: not given; reference: not given; direction: higher = stronger binding
Target: Runt-related transcription factor 3, Runt domain (RUNX3, Homo sapiens, UniProt Q13761, residues 53-186)
Sequence of UniProt Q13761 (53-186, looked up): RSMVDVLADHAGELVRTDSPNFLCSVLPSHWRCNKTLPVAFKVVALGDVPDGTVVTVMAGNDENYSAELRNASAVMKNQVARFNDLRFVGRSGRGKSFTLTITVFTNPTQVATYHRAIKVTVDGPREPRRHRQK
Setting: whole hairpin DNA, median over replicate spots
| Sequence | median fluorescence [a.u.] |
| --- | --- |
| GAGGCCCAACCGCGACAGCCTCCTGGCTGTCGCGGTTGGGCCTCACACTC (5mC at 13) | 6180 |
| GAGGCCTGTCGCGGGTGGCCTCCTGGCCACCCGCGACAGGCCTCACACTC | 6050 |
| CTCAGTTCTGTGGTCTGGACTCCTGTCCAGACCACAGAACTGAGACACTC | 4580 |
| GAGGCCCAACCGTAACAGCCTCCTGGCTGTTACGGTTGGGCCTCACACTC | 4260 |
| GAGGCCTGTCGCGGTTGGCCTCCTGGCCAACCGCGACAGGCCTCACACTC (5mC at 6) | 6550 |
| GAGGCCTGTTGCGGTTGGCCTCCTGGCCAACCGCAACAGGCCTCACACTC | 8490 |
| CTCAGTTCTGTGGGCGGGACTCCTGTCCCGCCCACAGAACTGAGACACTC | 4340 |
| GAGGCCTGTCGCGGTTGGCCTCCTGGCCAACCGCGACAGGCCTCACACTC (5mC at 37) | 6150 |
| GAGGCCTGTTCGGGTTGGCCTCCTGGCCAACCCGAACAGGCCTCACACTC (5mC at 33) | 4630 |
| GAGGCCTAACCGCAACAGCCTCCTGGCTGTTGCGGTTAGGCCTCACACTC | 13300 |
